Measured values collected from several papers.
Each numbered part is a random draw from the data of one study; scales do not carry over between parts. “And” joins repeats or separate records; there may be more than shown.
UniProt Q06187, sequence (whole entry, looked up): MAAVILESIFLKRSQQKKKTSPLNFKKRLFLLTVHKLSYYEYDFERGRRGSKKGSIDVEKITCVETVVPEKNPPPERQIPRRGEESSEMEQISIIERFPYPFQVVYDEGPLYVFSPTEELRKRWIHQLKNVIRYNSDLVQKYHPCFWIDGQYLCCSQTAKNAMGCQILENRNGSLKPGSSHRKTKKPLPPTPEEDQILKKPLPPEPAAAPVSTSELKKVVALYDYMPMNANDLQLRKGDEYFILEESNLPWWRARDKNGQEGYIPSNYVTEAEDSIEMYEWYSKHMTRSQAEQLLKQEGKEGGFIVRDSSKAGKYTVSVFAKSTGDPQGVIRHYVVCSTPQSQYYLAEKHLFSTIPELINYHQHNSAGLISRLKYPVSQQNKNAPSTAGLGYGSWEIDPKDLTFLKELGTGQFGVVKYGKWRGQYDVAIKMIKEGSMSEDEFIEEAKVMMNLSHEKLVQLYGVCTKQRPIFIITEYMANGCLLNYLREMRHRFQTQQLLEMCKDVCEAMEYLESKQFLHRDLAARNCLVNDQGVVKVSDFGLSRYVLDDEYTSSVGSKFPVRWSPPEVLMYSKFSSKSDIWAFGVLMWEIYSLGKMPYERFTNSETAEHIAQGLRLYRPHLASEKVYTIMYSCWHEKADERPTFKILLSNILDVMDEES
UniProt O15146, sequence (whole entry, looked up): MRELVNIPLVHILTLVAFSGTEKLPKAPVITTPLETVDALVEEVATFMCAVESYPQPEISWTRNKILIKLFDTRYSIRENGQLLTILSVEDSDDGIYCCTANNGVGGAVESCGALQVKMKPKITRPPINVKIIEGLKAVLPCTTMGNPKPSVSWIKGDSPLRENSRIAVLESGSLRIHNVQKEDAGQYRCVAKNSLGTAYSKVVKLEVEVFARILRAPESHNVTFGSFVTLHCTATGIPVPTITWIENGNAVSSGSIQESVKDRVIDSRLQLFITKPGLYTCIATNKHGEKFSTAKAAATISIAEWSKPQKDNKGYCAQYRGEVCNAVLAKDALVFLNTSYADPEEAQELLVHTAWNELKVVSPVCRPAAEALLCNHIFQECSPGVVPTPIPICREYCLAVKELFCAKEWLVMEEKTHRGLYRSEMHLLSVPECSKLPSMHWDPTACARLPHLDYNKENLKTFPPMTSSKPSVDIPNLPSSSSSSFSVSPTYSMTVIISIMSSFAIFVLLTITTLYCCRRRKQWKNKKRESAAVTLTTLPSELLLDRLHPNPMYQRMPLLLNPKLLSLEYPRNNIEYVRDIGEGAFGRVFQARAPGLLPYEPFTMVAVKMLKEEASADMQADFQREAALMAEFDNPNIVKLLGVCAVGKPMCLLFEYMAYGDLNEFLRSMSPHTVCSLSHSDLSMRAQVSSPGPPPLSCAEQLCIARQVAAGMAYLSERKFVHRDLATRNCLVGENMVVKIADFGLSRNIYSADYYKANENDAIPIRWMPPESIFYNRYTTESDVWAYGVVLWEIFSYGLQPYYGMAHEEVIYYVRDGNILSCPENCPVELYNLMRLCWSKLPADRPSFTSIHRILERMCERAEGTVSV
UniProt Q8WU08, sequence (whole entry, looked up): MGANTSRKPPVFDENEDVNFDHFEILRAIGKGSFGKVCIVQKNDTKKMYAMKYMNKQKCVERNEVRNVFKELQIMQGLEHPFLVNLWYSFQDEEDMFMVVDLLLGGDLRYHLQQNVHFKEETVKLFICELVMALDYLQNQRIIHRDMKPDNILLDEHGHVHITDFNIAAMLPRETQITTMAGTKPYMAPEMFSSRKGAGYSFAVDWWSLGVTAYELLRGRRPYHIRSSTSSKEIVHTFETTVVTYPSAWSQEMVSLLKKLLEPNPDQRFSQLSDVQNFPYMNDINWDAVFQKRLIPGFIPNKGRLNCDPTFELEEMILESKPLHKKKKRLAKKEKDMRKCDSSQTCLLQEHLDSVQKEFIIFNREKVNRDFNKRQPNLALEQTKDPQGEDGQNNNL
UniProt Q14289, sequence (whole entry, looked up): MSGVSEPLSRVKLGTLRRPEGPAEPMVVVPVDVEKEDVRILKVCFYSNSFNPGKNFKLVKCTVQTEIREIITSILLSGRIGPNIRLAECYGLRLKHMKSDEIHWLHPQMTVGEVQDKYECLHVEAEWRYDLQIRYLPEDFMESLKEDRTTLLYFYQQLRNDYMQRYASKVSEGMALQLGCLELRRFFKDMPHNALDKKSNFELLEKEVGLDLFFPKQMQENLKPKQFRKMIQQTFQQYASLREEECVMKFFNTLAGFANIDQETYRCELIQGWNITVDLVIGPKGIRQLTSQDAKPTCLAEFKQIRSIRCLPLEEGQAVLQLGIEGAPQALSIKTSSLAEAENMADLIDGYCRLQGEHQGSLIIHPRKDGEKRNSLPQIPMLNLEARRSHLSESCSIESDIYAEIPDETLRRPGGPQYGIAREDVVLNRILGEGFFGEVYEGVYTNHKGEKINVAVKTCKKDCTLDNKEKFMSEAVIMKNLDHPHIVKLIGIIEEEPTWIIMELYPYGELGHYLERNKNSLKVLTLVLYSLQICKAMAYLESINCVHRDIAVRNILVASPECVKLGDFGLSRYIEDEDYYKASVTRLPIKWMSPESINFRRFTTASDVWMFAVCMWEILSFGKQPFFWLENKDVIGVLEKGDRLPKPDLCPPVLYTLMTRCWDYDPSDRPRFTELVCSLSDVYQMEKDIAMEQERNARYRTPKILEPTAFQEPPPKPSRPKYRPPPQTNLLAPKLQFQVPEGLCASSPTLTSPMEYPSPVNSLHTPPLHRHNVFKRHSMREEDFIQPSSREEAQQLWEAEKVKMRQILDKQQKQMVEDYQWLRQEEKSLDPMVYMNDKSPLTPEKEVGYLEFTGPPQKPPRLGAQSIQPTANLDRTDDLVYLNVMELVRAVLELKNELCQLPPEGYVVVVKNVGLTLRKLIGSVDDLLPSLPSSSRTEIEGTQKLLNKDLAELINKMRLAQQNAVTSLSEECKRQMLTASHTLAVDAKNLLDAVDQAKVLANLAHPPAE
UniProt Q32MK0, sequence (whole entry, looked up): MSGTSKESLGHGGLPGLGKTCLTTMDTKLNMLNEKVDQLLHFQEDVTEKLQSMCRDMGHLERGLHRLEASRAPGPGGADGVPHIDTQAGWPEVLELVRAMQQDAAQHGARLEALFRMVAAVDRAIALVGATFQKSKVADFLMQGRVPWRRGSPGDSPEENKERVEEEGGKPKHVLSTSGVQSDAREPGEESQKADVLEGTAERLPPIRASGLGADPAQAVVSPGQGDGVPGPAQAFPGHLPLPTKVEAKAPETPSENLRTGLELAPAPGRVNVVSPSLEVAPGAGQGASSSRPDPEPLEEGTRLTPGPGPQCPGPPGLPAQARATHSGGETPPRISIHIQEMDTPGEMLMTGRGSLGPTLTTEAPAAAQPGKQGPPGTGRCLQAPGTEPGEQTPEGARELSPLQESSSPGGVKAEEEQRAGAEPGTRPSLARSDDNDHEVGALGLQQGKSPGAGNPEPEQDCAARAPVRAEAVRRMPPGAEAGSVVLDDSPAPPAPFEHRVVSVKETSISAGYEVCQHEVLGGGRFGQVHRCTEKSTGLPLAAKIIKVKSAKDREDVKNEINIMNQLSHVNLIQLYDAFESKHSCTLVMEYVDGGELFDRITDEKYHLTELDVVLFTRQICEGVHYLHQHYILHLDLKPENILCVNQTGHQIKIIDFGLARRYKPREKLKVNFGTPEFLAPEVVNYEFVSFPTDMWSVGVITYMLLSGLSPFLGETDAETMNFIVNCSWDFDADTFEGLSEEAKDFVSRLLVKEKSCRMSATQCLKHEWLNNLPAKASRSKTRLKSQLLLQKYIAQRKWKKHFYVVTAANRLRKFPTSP
UniProt O15197, sequence (whole entry, looked up): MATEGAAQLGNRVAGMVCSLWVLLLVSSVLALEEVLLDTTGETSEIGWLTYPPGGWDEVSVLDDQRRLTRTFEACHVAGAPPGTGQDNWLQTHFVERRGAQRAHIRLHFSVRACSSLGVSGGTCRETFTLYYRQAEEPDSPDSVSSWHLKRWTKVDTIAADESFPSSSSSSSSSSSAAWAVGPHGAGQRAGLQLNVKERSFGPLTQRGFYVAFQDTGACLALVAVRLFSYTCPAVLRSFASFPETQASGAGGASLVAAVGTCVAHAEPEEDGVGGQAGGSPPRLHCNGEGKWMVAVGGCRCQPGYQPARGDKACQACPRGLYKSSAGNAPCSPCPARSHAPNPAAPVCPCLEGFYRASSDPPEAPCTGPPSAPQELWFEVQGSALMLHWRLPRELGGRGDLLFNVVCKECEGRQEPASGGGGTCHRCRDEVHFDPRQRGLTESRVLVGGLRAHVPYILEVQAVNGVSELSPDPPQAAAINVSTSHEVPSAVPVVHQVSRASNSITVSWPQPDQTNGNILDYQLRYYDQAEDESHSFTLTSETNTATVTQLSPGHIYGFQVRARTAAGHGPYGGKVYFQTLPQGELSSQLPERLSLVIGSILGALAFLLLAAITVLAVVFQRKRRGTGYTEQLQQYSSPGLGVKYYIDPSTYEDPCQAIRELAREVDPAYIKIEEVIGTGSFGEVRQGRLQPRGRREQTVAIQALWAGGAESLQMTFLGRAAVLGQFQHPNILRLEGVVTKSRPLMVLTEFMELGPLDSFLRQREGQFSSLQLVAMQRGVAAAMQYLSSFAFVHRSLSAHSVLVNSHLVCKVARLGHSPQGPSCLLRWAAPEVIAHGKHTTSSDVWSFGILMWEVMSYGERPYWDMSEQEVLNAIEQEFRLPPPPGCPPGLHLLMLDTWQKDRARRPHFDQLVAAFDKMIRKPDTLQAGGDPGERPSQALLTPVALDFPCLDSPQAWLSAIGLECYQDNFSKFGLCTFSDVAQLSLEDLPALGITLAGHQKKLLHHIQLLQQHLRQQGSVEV

Set 1
Cell line: mouse MPNST tumor cells
Method: high-content immunofluorescence imaging
Item: nuclear SOX9
Concentration: 10 µM
Time: 12 h
Notes: mean of 2 replicates
Relative to: DMSO control
Direction: higher = more nuclear SOX9
SMILES | nuclear SOX9 intensity
COc1cc2ncnc(Nc3ccc(Oc4ccccc4)cc3)c2cc1OC | 156 % of DMSO
COc1cc(N2CCN(C(C)=O)CC2)ccc1Nc1ncc(Cl)c(Nc2ccc(N3CCN(C(C)=O)CC3)cc2OC)n1 | 122 % of DMSO
C/C(O)=C(\C#N)C(=O)Nc1ccc(C(F)(F)F)cc1 | 104 % of DMSO and 110 % of DMSO
N=C(N)SCCc1ccc(OCc2ccc([N+](=O)[O-])cc2)cc1 | 177 % of DMSO
COc1cc2c(NC3CCN(C)CC3)nc(N3CCCN(C)CC3)nc2cc1OCCCN(C)C | 98.6 % of DMSO
Cc1[nH]c(=O)c(C#N)cc1-c1ccncc1 | 109 % of DMSO and 98.5 % of DMSO
CCCCN(CCCC)CC(O)c1cc(Cl)cc2c1-c1ccc(Cl)cc1/C2=C/c1ccc(Cl)cc1 (stereo not drawn) | 89.5 % of DMSO

Set 2
SMILES: O=c1nc(-c2ccccn2)sc2ccccc12
Method: competition with immobilised ligand
Concentration: 1 µM
target | test | remaining binding [%]
Ephrin type-B receptor 6 (EPHB6, Homo sapiens, UniProt O15197) | cell-free assay | 61
Cyclin-G-associated kinase (GAK, Homo sapiens, UniProt O14976) | binding | 97
Serine/threonine-protein kinase D2 (PRKD2, Homo sapiens, UniProt Q9BZL6) | binding | 97
NUAK family SNF1-like kinase 2 (NUAK2, Homo sapiens, UniProt Q9H093) | binding | 100
SRSF protein kinase 1 (SRPK1, Homo sapiens, UniProt Q96SB4) | binding | 83
Dual specificity protein kinase CLK4 (CLK4, Homo sapiens, UniProt Q9HAZ1) | binding | 90
Hormonally up-regulated neu tumor-associated kinase (HUNK, Homo sapiens, UniProt P57058) | binding | 81
Tyrosine-protein kinase BTK (BTK, Homo sapiens, UniProt Q06187) | binding | 96
Tyrosine-protein kinase ZAP-70 (ZAP70, Homo sapiens, UniProt P43403) | binding | 100
Insulin-like growth factor 1 receptor (IGF1R, Homo sapiens, UniProt P08069) | cell-free assay | 80
Interleukin-1 receptor-associated kinase 4 (IRAK4, Homo sapiens, UniProt Q9NWZ3) | binding | 100
Serine/threonine-protein kinase 32C (STK32C, Homo sapiens, UniProt Q86UX6) | binding | 100
Glycogen synthase kinase-3 alpha (GSK3A, Homo sapiens, UniProt P49840) | cell-free assay | 82
Serine/threonine-protein kinase MAK (MAK, Homo sapiens, UniProt P20794) | binding | 89
Casein kinase II subunit alpha (CSNK2A1, Homo sapiens, UniProt P68400) | cell-free assay | 68
Serine/threonine-protein kinase DCLK3 (DCLK3, Homo sapiens, UniProt Q9C098) | binding | 97
Ephrin type-A receptor 2 (EPHA2, Homo sapiens, UniProt P29317) | cell-free assay | 100
Tyrosine-protein kinase Yes (YES1, Homo sapiens, UniProt P07947) | binding | 100
ALK tyrosine kinase receptor (ALK, Homo sapiens, UniProt Q9UM73) | cell-free assay | 84
cAMP-dependent protein kinase catalytic subunit alpha (PRKACA, Homo sapiens, UniProt P17612) | cell-free assay | 91
Serine/threonine-protein kinase B-raf (BRAF, Homo sapiens, UniProt P15056, V600E) | cell-free assay | 100
Muscle, skeletal receptor tyrosine-protein kinase (MUSK, Homo sapiens, UniProt O15146) | binding | 100
Tyrosine-protein kinase ITK/TSK (ITK, Homo sapiens, UniProt Q08881) | binding | 82
Serine/threonine-protein kinase LATS1 (LATS1, Homo sapiens, UniProt O95835) | binding | 95
Myosin light chain kinase (MYLK3, Homo sapiens, UniProt Q32MK0) | binding | 100

Set 3
Organism: Sarcocystis neurona
Effect on: parasite growth
Concentration: 10 µM
Time: 96 h
Relative to: untreated
SMILES | log2 fold change
COCc1c(C(C)C)nc(C(C)C)c(/C=C/[C@@H](O)C[C@@H](O)CC(=O)O)c1-c1ccc(F)cc1 | -0.52
CN(C)C(=O)C(CCN1CCC(O)(c2ccc(Cl)cc2)CC1)(c1ccccc1)c1ccccc1 | -0.45
OCCN1CCN(CCCN2c3ccccc3Sc3ccc(C(F)(F)F)cc32)CC1 | -3.12
CC(C)(O)c1ccccc1CC[C@@H](SCC1(CC(=O)O)CC1)c1cccc(/C=C/c2ccc3ccc(Cl)cc3n2)c1 | 0.38
CCC(=O)O[C@]1(C(=O)SCF)[C@H](C)C[C@H]2[C@@H]3C[C@H](F)C4=CC(=O)C=C[C@]4(C)[C@@]3(F)[C@@H](O)C[C@@]21C | -0.12
Cc1nc2ccc(CN(C)c3ccc(C(=O)N[C@@H](CCC(=O)O)C(=O)O)s3)cc2c(=O)[nH]1 | 0.32

Set 4
SMILES: CC(C)S(=O)(=O)c1ccc2nccc(Nc3ccc4sc(C5CCCC5)nc4c3)c2c1
Effect on: enzyme activity
Mode: inhibitor
Concentration: 1 µM
target | activity vs control
Serine/threonine-protein kinase 32A (STK32A, Homo sapiens, UniProt Q8WU08) | 102%
Wee1-like protein kinase 2 (WEE2, Homo sapiens, UniProt P0C1S8) | 99%
Calcium/calmodulin-dependent protein kinase type 1G (CAMK1G, Homo sapiens, UniProt Q96NX5) | 108%
Tyrosine-protein kinase BTK (BTK, Homo sapiens, UniProt Q06187) | 99%
Vascular endothelial growth factor receptor 3 (FLT4, Homo sapiens, UniProt P35916) | 88.5%
Protein-tyrosine kinase 2-beta (PTK2B, Homo sapiens, UniProt Q14289) | 106%

Set 5
Method: logD(dd/w) and ALogP
Notes: JT method
Structure (SMILES) | lipophilic permeability efficiency
CC(C)C[C@@H]1NC(=O)[C@H](C)NC(=O)[C@H](C)NC(=O)[C@H](CCC(=O)N2CCCC2)NC(=O)[C@H](CC(C)C)NC(=O)[C@H](CC(C)C)NC(=O)[C@@H](CC(C)C)NC1=O | 1.57
CC(C)C[C@@H]1NC(=O)[C@@H](C)NC(=O)[C@H](CCC(=O)N2CCCC2)NC(=O)[C@@H](C(C)C)NC(=O)[C@H](C)NC(=O)[C@H](CC(C)C)NC(=O)[C@@H](CC(C)C)NC1=O | 1.49
CC(C)C[C@@H]1NC(=O)[C@H](Cc2cscn2)NC(=O)[C@H](C)NC(=O)[C@H](CCC(=O)N2CCCC2)NC(=O)[C@@H](CCC(=O)N2CCCC2)NC(=O)[C@H](CC(C)C)NC(=O)[C@@H](CC(C)C)NC1=O | 1.64
CC(C)C[C@@H]1NC(=O)[C@H](C)NC(=O)[C@H](Cc2cscn2)NC(=O)[C@@H](CC(C)C)NC(=O)[C@@H](CCC(=O)N2CCCC2)NC(=O)[C@H](CC(C)C)NC(=O)[C@@H](CC(C)C)NC1=O | 2.32
CC(C)C[C@@H]1NC(=O)[C@H](C(C)C)NC(=O)[C@H](CCC(=O)N2CCCC2)NC(=O)[C@H](CC(C)C)NC(=O)[C@@H](Cc2cscn2)NC(=O)[C@H](CC(C)C)NC(=O)[C@@H](CC(C)C)NC1=O | 1.78
CC(C)C[C@@H]1NC(=O)[C@H](CC(C)C)NC(=O)[C@@H](CC(C)C)NC(=O)[C@H](CC(C)C)NC(=O)[C@@H](Cc2cscn2)NC(=O)[C@H](C)NC(=O)[C@H](CCC(=O)N2CCCC2)NC1=O | 2.12
CC(C)C[C@@H]1NC(=O)[C@H](CC(C)C)NC(=O)[C@H](CC(C)C)NC(=O)[C@H](C(C)C)NC(=O)[C@@H](Cc2cscn2)NC(=O)[C@H](CCC(=O)N2CCCC2)NC(=O)[C@H](C)NC1=O | 1.66

Some of these lines once more (set 1):
SMILES | nuclear SOX9 intensity
C/C(O)=C(\C#N)C(=O)Nc1ccc(C(F)(F)F)cc1 | 104 % of DMSO and 110 % of DMSO
Cc1[nH]c(=O)c(C#N)cc1-c1ccncc1 | 109 % of DMSO and 98.5 % of DMSO
N=C(N)SCCc1ccc(OCc2ccc([N+](=O)[O-])cc2)cc1 | 177 % of DMSO
COc1cc(N2CCN(C(C)=O)CC2)ccc1Nc1ncc(Cl)c(Nc2ccc(N3CCN(C(C)=O)CC3)cc2OC)n1 | 122 % of DMSO
COc1cc2ncnc(Nc3ccc(Oc4ccccc4)cc3)c2cc1OC | 156 % of DMSO
COc1cc2c(NC3CCN(C)CC3)nc(N3CCCN(C)CC3)nc2cc1OCCCN(C)C | 98.6 % of DMSO
CCCCN(CCCC)CC(O)c1cc(Cl)cc2c1-c1ccc(Cl)cc1/C2=C/c1ccc(Cl)cc1 (stereo not drawn) | 89.5 % of DMSO
